Published values collected from several papers.
Every numbered part comes from another study and shows a few of its results, in no order. Changes are numbered by the printed parent chain.

Set 1 — method: RNA Bind-n-Seq; form: RNA; matrix: in vitro; tested at: not given; relative to: input RNA pool; reading: higher = stronger binding
Target: RING finger protein unkempt homolog, zinc fingers 1-6, GST-SBP tag (UNK, Homo sapiens, UniProt Q9C0B0, residues 30-357)
Chain of UniProt Q9C0B0 (30-357, looked up): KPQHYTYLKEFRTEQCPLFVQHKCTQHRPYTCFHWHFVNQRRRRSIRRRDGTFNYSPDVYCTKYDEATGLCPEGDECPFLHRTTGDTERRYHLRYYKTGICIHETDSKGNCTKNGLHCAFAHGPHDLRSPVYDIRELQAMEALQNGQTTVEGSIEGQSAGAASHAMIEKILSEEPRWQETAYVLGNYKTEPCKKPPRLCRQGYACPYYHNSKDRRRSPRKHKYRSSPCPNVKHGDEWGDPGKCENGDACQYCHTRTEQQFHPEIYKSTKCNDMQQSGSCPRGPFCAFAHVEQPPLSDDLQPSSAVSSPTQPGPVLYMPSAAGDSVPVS
Setting: RNA with constant flanks, human-mouse chimeric sites, ends assumed
| Oligonucleotide | bound/input enrichment [ratio] |
| --- | --- |
| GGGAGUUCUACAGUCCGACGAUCAUAGAUGAAAUUGAUGUGGACCAGGAAGGAAUUGCUGAAAUGAUCCUGGAUGAAAAUGCUAUAGCUCAGGUCCCACGCCCUGGCACAUCUUUGAAGCUCCCUGGCACUAAUCAGACAGGACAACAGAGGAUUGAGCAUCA | 0.337 |
| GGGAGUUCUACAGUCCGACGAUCGUUGCCAGCUUCCGGUUCCGUUGGGCUCGGUUCUCUCCUGAGCUACGUGUCUCUACGUUUUAGGUGUGCCAUCCAACAAACAUGGAUGAUCAGGUAAAGUUUGUGGAGCCCAGCCGGCAGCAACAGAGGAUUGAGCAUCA | 0.132 |
| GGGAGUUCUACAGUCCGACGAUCUGUGAACUGUCUCUUGAGAUCUAAAAACAAGAUGACUUUUCCUGGCACAUAUUCCAAAGCAAAGACUUUGUUGCCUGCUGCUUCUUGUCUAAUUUACAGGGAUAUUUAAUUUUGUAAGGUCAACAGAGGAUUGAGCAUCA | 0.147 |
| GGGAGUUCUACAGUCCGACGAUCUAAGUUAUUUUGUACAGCUUUGUAAAUUCUUAACAUUUUUAUAUUGCACAUUUUAUGUUGUUUGGGUAAUUUGGUUCAUUAAGUACAAAACCAAAUAAAUGAACAUCUUUUUCAGUAAUUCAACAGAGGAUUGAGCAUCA | 0.791 |
| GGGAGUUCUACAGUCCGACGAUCACCUCCCCCUCCCGCCUGCUUUUUGAACCGCUUUUUGGAAAGUUUUUGGCGUUUCUUUUCCUUCCCCAUACAAAGUGAUUACAGUUUCCCCCGCAAGUGGGGCUUGAAGGGCUUGACGGACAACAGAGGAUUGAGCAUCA | 0.58 |
| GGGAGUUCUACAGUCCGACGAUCCUCGGCACUGGUACCCUUUACAUCGCGGAGAGCCGCCUGUCUUGGUUAGAUGGUUCGGGAUUAGGAUUCUCACUGGAAUACCCCACCAUUAGUUUACAUGCGGUGUCCAGGGAUCCAAACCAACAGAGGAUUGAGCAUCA | 0.726 |
| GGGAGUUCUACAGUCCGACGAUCAUAAAGGCUAUGUUGAGUGGCCCAGGUCAGUUUGCUGAGAACGAAACCAACGAGGUCAAUUUUAGAGAGAUCCCCUCACAUGUGCUAUCAAAAGUGUGCAUGUAUUUUACCUACAAGGUCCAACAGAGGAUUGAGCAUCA | 0.158 |
| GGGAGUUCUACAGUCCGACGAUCGGUGGGGUGGUCAUUGCCGUUUGAGCUGCUGAUUUUCAUGAGUCGCCCAUUCAGAACUCGUGUAGGGUUGACACUGUGGGGGGGUGGGGGAUCCAGCUUAUUCUUUUAUUUUCAAGUCCACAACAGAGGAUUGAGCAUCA | 0.504 |
| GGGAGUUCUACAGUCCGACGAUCGUUCGGCUUUGGGAUCAUGCUACUAUGACAGAAGUGAAAUCUCUGAAUUUUAAUAUGUCUGUUAGCAGCAUGGAGUAUAUUCCUGAAGGAGAGAUUUUGGUUAUUACUUAUGGACGAUCUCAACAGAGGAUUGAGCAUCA | 0.186 |
| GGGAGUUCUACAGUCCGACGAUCAUGGAGAAGGAUUCUCUGCCCCGCUUUGUGCGCUCUGAAUUUUAUAAGGAGCUAAUCAAGUAGUCAUCUGGUCAGGCUUCCAAAAGUUGCCCUGUGAUAUUUCCUCCAUCCUUUGUAGCACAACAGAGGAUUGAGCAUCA | 0.213 |
| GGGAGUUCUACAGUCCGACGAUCUACUGCUGCUUUCAACUUAAAUCACUGAGGCAUCUCUACUGUUCUGUGAGCAUCAGGACUGUAGCGCUUGCCACCACCAUGAGAGUUCAGAAGCAGCCUUUCUGUGGAGGGUGGGAAUGACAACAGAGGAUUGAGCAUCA | 0.125 |

Set 2 — method: RNA Bind-n-Seq; form: RNA; matrix: in vitro; tested at: 365 nM; relative to: no-protein control; reading: higher = stronger binding
Target: RNA binding protein fox-1 homolog 2, RRM domain, GST-SBP tag (RBFOX2, Homo sapiens, UniProt O43251-10, residues 100-194)
Setting: natural RNA segment, single round, ends assumed
Target sequence (chain): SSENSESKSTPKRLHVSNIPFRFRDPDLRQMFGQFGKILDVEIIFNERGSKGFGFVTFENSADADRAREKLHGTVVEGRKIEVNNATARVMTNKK
| Oligonucleotide | RBNS enrichment (R) |
| --- | --- |
| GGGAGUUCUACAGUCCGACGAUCCAUUUUAUUAGGGGUUGUGACAACAUUAUUAAACUUUUGUGUAUAUAAAGCCAGGUGUCUUAGCUAGAUAUAUUUCCAGUCUUUUAACUUUGACACUGUGAAGCUCUAAGUGGAAUUCUCGGGUGCCAA | 0.343 |
| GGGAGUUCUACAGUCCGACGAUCUUAAGUGAGAUGCACACAAAAAGCUCAGCACAGUGUCUGGCAUCUAAUAUGUGCAGGGCAGAUGUCACUACUGAAUAUCACAUCAAUGCUAGGGCUGUAUUUACUGUCACUGGAAUUCUCGGGUGCCAA | 0.631 |
| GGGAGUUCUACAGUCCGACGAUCAUAUAUGUCCUCACAUACCUCUGCUGGAAGGACAGAGCGCUGUCUUAUGACUGGUAAGAGGGAGUGCUCCUGGACCCUGCUCGUGUGCCUUUUUCUACUGUUCAUUUUAUUGGAAUUCUCGGGUGCCAA | 0.666 |
| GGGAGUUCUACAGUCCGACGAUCGCCUGCCCUUUCCAGCCUCUUCAAAAGAUGCAUCCAAACAACAGGUCUGCAUUUGAUGUAAUGCCUUAAUUACUGGGGCCACAUUCACGUUGACUGUCUCAGAGACUGUAUGGAAUUCUCGGGUGCCAA | 0.342 |
| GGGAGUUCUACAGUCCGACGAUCUUUUUCUUUACCUCAGUUAACUUAAGUAAUGGACCAAUAAACCUAUCAAAGCUGCUUCAUUUCUUCCGGAUCAUGUGCUCAUUUUUGUCUCUGUUAGGACUGGAAAAGCAUGGAAUUCUCGGGUGCCAA | 0.872 |
| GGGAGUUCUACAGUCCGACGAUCUGAAGUAGCCCUUAAUCCUAACUUUUAAGCAAAAUCCCUUGGCCGCACUUUUAAGGUUUGGUUGUUUUUUAUAUAUAUAUGUGUAUAGUUACCAACUUAAAAAUAAAAAAUGGAAUUCUCGGGUGCCAA | 0.813 |
| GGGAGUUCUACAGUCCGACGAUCCUUCUUCAUGGGUGGCUCAGAUGGUGGCUACACCAUUUGUGAGGAGCCAUGGCCACUCCUGUGCCGGGGAAGACAUCACAUACCUUCAGCACUUCUCACAAUGUAACUGCUGGAAUUCUCGGGUGCCAA | 0.3 |
| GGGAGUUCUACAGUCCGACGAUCAUUAAAUUCUCAGUGAGGCUAUCUUCCUUUUCCCCAGUAACAUUCCUGAAUUUACUGUUAUCUUAUUGUAGUACUUGCAUGACAUGGAUUCCUGAUAUCUGAUGAGAGGUUGGAAUUCUCGGGUGCCAA | 3.23 |
| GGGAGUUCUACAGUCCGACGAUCCACUAUUUUUUUUUUUAAAUCAUUUAUCCUAGAGAAGGACUCUGAUCCUUGCUUUCCUAGGUAAAUUAUGCUGGAGUGCUUCCAGUACUAAGGCCUCUUGAUUCUUUCCCUGGAAUUCUCGGGUGCCAA | 0.572 |
| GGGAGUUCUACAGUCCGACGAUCCGAUUUUUGAUCAAUUCUUUAAUUUUGGAAGCCUAUAAUACAGUUUUCUAUUCUUGGAGAUAAAAAUUAAAUGGAUCACUGAUAUUUUAGUCAUUCUGCUUCUCAUCUAAUGGAAUUCUCGGGUGCCAA | 0.498 |

Set 3 — target: CCNE2, cyclin fold, Cln2 fusion (human); method: yeast growth competition, sequencing; matrix: yeast; setting: strong parent motif; relative to: not given; reading: higher = stronger binding
Starting sequence: CDKN1B docking peptide (human); PSACRNLFGPVDH
| Change | normalised enrichment score |
| --- | --- |
| C4N | 0.286 |
| V11G | 1.3 |
| F8L | 0.121 |
| H13W | 4.28 |
| V11C | 0.864 |
| S2Q | 0.65 |
| L7E | -0.0913 |
| D12L | 1.39 |
| F8Q | 0.3 |
| R5K | 0.394 |
| P1I | 1.25 |

Other studies, line by line
| Substance | target | test | test system | setting | how to read | endpoint | result |
| --- | --- | --- | --- | --- | --- | --- | --- |
| PhoQ, residues 284 288 289 292 302 303 SLKLQV | PhoP, residues 12 14 15 18 19 AQALL (Escherichia coli, UniProt P23836) | Sort-seq, refers to: YFP reporter | E. coli | PhoQ-PhoP variant library, added: 10 µM Mg2+ | relative to: high Mg2+ state, higher = stronger signaling | fold induction | 11.2 |

Excerpt of the above (set 2):
| Oligonucleotide | RBNS enrichment (R) |
| --- | --- |
| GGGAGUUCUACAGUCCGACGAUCUGAAGUAGCCCUUAAUCCUAACUUUUAAGCAAAAUCCCUUGGCCGCACUUUUAAGGUUUGGUUGUUUUUUAUAUAUAUAUGUGUAUAGUUACCAACUUAAAAAUAAAAAAUGGAAUUCUCGGGUGCCAA | 0.813 |
| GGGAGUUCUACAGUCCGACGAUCCUUCUUCAUGGGUGGCUCAGAUGGUGGCUACACCAUUUGUGAGGAGCCAUGGCCACUCCUGUGCCGGGGAAGACAUCACAUACCUUCAGCACUUCUCACAAUGUAACUGCUGGAAUUCUCGGGUGCCAA | 0.3 |
| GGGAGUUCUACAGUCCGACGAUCAUUAAAUUCUCAGUGAGGCUAUCUUCCUUUUCCCCAGUAACAUUCCUGAAUUUACUGUUAUCUUAUUGUAGUACUUGCAUGACAUGGAUUCCUGAUAUCUGAUGAGAGGUUGGAAUUCUCGGGUGCCAA | 3.23 |
| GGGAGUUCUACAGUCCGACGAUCCACUAUUUUUUUUUUUAAAUCAUUUAUCCUAGAGAAGGACUCUGAUCCUUGCUUUCCUAGGUAAAUUAUGCUGGAGUGCUUCCAGUACUAAGGCCUCUUGAUUCUUUCCCUGGAAUUCUCGGGUGCCAA | 0.572 |
| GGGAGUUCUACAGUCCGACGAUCCGAUUUUUGAUCAAUUCUUUAAUUUUGGAAGCCUAUAAUACAGUUUUCUAUUCUUGGAGAUAAAAAUUAAAUGGAUCACUGAUAUUUUAGUCAUUCUGCUUCUCAUCUAAUGGAAUUCUCGGGUGCCAA | 0.498 |
